Assay results collected from several papers.
Every numbered part comes from another study and shows a few of its results, in no order. Changes are numbered by the printed parent chain.

Block 1
Target: ABI1, truncated, D143A, DHFR fusion (Arabidopsis thaliana)
Method: DHFR PCA, deep sequencing
Matrix: yeast
Setting: methotrexate growth selection, single substitutions
Together with: (+)-ABA 17 µM
Relative to: wild-type fitted maximum
Reading: higher = stronger binding
Starting sequence: PYL1, truncated, DHFR fusion (Arabidopsis thaliana); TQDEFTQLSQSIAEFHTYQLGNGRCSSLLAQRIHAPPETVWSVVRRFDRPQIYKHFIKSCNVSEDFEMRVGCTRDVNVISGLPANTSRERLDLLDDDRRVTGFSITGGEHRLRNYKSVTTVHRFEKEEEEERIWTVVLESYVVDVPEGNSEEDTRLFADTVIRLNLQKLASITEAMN; partner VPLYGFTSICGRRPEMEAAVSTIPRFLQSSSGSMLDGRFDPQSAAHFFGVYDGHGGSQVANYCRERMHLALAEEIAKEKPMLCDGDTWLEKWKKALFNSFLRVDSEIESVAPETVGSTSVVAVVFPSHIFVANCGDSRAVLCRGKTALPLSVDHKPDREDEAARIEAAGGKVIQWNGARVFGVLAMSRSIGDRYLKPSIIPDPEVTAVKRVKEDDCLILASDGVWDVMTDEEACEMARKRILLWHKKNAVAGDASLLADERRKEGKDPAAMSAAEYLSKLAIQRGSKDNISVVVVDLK
Variant | relative binding score [%]
T86W | 93.9
D159N | 81.6
V145A | 28.1
S27Y | 15.2
D159Y | -1.29
T101A | 58.3
L28F | 62.5
V100N | -10.1
L112Q | -6.6
A158H | 18.8
D92C | 36.9
H34E | 80.9
T154V | 89.2
H34F | 80.3
E89S | -16.3
E125S | 87.9
V161I | 102

Block 2
Target: CCND3, cyclin fold, Cln2 fusion (human)
Method: yeast growth competition, sequencing
Matrix: yeast
Setting: weak parent motif
Relative to: not given
Reading: higher = stronger binding
Starting sequence: MASTL docking peptide (human); PMIAKNLMCELDE
Variant | normalised enrichment score
PMNAKNLMCELDE [I3N] | 0.105
PMIAKPLMCELDE [N6P] | -0.043
PMIAKNLMCELYE [D12Y] | -0.258
PMIQKNLMCELDE [A4Q] | -0.251
PMIAKNLMCELTE [D12T] | 0.154
PMIAKNLMCETDE [L11T] | -0.0253
PMIACNLMCELDE [K5C] | -0.141
PVIAKNLMCELDE [M2V] | -0.0367
PMIAKNLMCPLDE [E10P] | 0.0375
PMIAKNSMCELDE [L7S] | -0.179
PMIAKNLMCEIDE [L11I] | 0.346
PMLAKNLMCELDE [I3L] | 0.0671
PMIAKNGMCELDE [L7G] | -0.622
PMIAKNLMCALDE [E10A] | -0.179
PMIAKQLMCELDE [N6Q] | -0.000307
PMIAANLMCELDE [K5A] | 0.0511
PMIAKLLMCELDE [N6L] | 0.573
PMIAWNLMCELDE [K5W] | -0.23
PMIDKNLMCELDE [A4D] | -0.128
PMIAKNLPCELDE [M8P] | 0.0173
PMIAKNLMCEMDE [L11M] | -0.454
PMIAKNLTCELDE [M8T] | -0.124
PMIAKNLMEELDE [C9E] | -0.485
PMIAKNKMCELDE [L7K] | 0.277
PMKAKNLMCELDE [I3K] | 0.133

Block 3
Target: NFE2L3, bZIP domain (human)
Method: DHFR protein complementation
Matrix: yeast
Setting: single substitutions, most at no-binding floor
Relative to: wild-type JUN-FOS pair
Reading: higher = stronger binding
Starting sequence: JUN, bZIP domain (human); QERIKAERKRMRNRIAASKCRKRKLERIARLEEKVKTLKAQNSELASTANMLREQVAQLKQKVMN; partner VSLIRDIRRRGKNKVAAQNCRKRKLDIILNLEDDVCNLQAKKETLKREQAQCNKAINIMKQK
Variant | binding fitness
V56S | -1.39 natural log
L52A | -1.56 natural log
N42S | -1.52 natural log
N42W | -1.45 natural log
L45D | -1.59 natural log
S47N | -1.51 natural log
S43L | -1.53 natural log
K34W | -1.52 natural log
R53N | -1.42 natural log
S47T | -1.31 natural log
E33Q | -1.42 natural log
T37K | -1.6 natural log
A29I | -1.47 natural log
A29M | -1.44 natural log
V56W | -1.39 natural log
A29W | -1.37 natural log
E54Y | -1.56 natural log
V35L | -1.49 natural log
L31G | -1.46 natural log
E44P | -1.49 natural log
L52M | -1.51 natural log
V35Q | -1.48 natural log
E33R | -1.52 natural log
T48L | -1.51 natural log
S47D | -1.38 natural log

Block 4
Target: RING finger protein unkempt homolog, zinc fingers 1-6, GST-SBP tag (UNK, Homo sapiens, UniProt Q9C0B0, residues 30-357)
Method: RNA Bind-n-Seq
Molecule type: RNA
Matrix: in vitro
Tested at: not given
Setting: RNA with constant flanks, human and mouse sites, ends assumed
Relative to: input RNA pool
Reading: higher = stronger binding
Residues (chain): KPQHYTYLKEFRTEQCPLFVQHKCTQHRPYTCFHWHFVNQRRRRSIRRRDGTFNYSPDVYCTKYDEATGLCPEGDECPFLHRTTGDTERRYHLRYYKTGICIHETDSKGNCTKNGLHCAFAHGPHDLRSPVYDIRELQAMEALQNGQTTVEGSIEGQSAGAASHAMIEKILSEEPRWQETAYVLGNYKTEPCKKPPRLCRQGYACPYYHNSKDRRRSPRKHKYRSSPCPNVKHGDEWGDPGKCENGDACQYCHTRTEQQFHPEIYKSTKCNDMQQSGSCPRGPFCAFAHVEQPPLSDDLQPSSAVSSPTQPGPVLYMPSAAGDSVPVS
Oligonucleotide | bound/input enrichment [ratio]
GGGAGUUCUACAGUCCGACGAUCCCACUUCGAAGCGUCUUGGAGCAAUCCAAGUUAAAGAAAGAAGAUAUUUAUGCAGUGGAGAUAGUUGGUGGUGCCACACGAAUCCCUGCAGUGAAAGAGAAGAUCAGCAAGUUUUUUGGUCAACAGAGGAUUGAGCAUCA | 0.186
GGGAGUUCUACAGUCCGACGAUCACUGUCCAGGAGGUUCACCCAGGAGAACCUCCGUUCGACUUGGAGCUGUUCUACGUUAAGUAUAGAAAUUUUUCCUACUUACAUUGUAAAUGGGCCACAAUGGAAGAGCUCGAAAAGGAUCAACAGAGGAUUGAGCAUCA | 0.342
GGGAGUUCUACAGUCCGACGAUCGUCCAGGGAUUCCAGGUUGAAUACAAAGACUUCCCCAAAAACAACAAGAACGAAUUUGUAUCUCUUAUCAAUUGCUCCUCUCAGCCACCUCUGAUCAGCCAUGGUAUCGGCAAGGAUGUGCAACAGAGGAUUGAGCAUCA | 0.253
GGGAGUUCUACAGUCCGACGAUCCCAACCACAGCCCCUCACAAGGAGAGGUAUUUUGACAGAGUCGAUGAGAACAACCCAGAAUAUUUGCGGGAGAGGAACAUGGCACCAGACCUUCGUCAGGACUUCAAUAUGAUGGAGCAGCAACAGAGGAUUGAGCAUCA | 0.386
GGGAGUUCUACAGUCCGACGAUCGCAAUAAAAAUAAUCGAUAAGUCUCAGCUGGAUGCAGUGAACCUUGAGAAAAUCUACCGAGAAGUACAAAUAAUGAAAAUGUUAGACCACCCUCACAUAAUCAAACUUUAUCAGGUAAUGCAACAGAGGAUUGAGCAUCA | 0.394
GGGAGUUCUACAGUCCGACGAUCGAAGUACUUAAAGCAGAAAGACCUGAUGUGGACGAGAAACGAUCUGAUCUUCUUAAACUUCAAGGGGAAUUUCAGCUCCGUUUGCGUCAGCUGGAAAAAUCUCUACUACAAGCUCUGAACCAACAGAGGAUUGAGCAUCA | 0.112
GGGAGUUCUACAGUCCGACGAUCGAAGACCACUUGGCAGUCAAGCACUUUUCUGUAGAAGGUCAGUUGGAAUUCAGGGCAUUGCUAUUUAUUCCUCGUCGGGCUCCCUUUGACCUUUUUGAGAACAAGAAGAAAAAGAACAACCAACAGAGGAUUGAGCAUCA | 0.103
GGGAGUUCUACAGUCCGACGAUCAGCGGCUACAAGACCCUGGGUUCACUCCCCAGAACCACCAGAGGGUAAACACCAGACCUCUAGGUAAAAAUGAUAAAGUUAUUUUCUUGUUAUACAGUUUAGAGUGUUGCCUUUCACAUUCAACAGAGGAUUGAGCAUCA | 0.577
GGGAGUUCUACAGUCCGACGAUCCCACAGGACAUUGAGUGUUGUGGGGCCCUAGAAUACUACGACAAAGCCUUUGACCGCAUCACCACGAGGAGUGAGAAGCCACUGCGGAGCAUCAAGCGCAUCUUCCACACUGUCACCACCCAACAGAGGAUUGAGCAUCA | 0.224
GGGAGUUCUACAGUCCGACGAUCUCUUUUUAGUGGAAGACAGACCAUAAUCCCAGUGUGAGUGAAAUUGAUUGUUUCAUUUAUUACCGUUUUGGCUGGGGGUUAGUUCCGACACCUUCACAGUUGAAGAGCAGGCAGAAGGAGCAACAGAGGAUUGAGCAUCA | 0.297
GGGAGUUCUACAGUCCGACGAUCGAGCCAUCCAGUGGCCCCCACCAGGAAAUGCAAGAGCUACCCACUGAUCUACUCCGGGAAGUGGAGGAGCCAUCCAGUGGCCCCUACCAGGAAAUGCAAGAGCUACCCACUGAUCUACUCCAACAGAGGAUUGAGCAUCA | 0.0835

Block 5
Target: Interferon regulatory factor 5, full length, phosphomimetic (IRF5, Homo sapiens, UniProt Q13568-2, residues 1-514, S451D/S453D/S456D/S462D)
Method: protein-binding microarray
Molecule type: double-stranded DNA, one strand shown
Matrix: in vitro
Tested at: 940 nM top
Setting: 60-bp whole probe
Together with: salmon DNA 0.4 mg/ml
Relative to: random background probes
Reading: higher = stronger binding
All sequences stand within: GCCTAGCAC … GTCTTGATTCGCTTGACGCTGCTG
Oligonucleotide | fitted relative affinity
TTAGGACTGAGTTTCGATTAGTGCTAG | 6.98 z-score
CTCACTCTGTCCCTCTGTGAGTGCTAG | 0.534 z-score
GACGGTTTCGGCACTGGGGACGTGCTA | 7.2 z-score
CCCACTTTCAGTTCTCCCTTGTGCTAG | 3.63 z-score
TCATAACTCATTTTCGTACTGTGCTAG | 1.24 z-score
GTCGGACTGGACTTTCGGGACGTGCTA | 0.782 z-score
GACGGTTACGGGTTTCGGGACGTGCTA | 1.89 z-score
AGTGGTATAGCACTAAGGGAGTGCTAG | -0.0792 z-score
GACGAGCTGAGTCTCGAGACGTGCTAG | 0.639 z-score
ACATTTTTTTCATTATTGTTGTGCTAG | 1.57 z-score
TCATCCATGGGTATGGCACTGTGCTAG | -0.242 z-score
TTAGGACTGCTTCTCCATTAGTGCTAG | -0.24 z-score
TTAGGACTGCTTATCCATTAGTGCTAG | -0.288 z-score
GGTTTTCTGGTTCCCATTCCGTGCTAG | 1.92 z-score
TCACTTTTCATTACTGCACTGTGCTAG | 1.7 z-score
TTAGGTTTCGACTATCGGGTAGTGCTA | 9.71 z-score
TTAGATCTCGGTCTCGGTTAGTGCTAG | 3.63 z-score
ATAGGACTGGGTCTCGGTTAGTGCTAG | 1.12 z-score
TTAGATATAAGTCTCGATTAGTGCTAG | 1.83 z-score
TTAGAACTGGGGTTTCGATTTGTGCTA | 4.89 z-score
CTGCCTTTCAATCCTAGGCCGTGCTAG | 0.49 z-score
GACGGTTGCGGACTGGGGACGTGCTAG | 0.0289 z-score
TCACCTCTGCTGCTGGCACTGTGCTAG | -0.533 z-score
GGCTTCCTCTTTCTCTGCTAGTGCTAG | 0.976 z-score
GGGATTTTGTCCTCCCCTCCCGTGCTA | -0.0759 z-score

A few entries again (block 1):
Variant | relative binding score [%]
T154V | 89.2
V161I | 102
E125S | 87.9
D159Y | -1.29
V145A | 28.1
T101A | 58.3
L28F | 62.5
E89S | -16.3
H34E | 80.9
V100N | -10.1
L112Q | -6.6
D92C | 36.9
